Results collected from several papers.
Each line is one published result; not all experiments were run side by side. Values joined by “and” are separate records of one study, mostly repeats; a detail may differ. Numbers after ± are the reported error. In brackets after ≈: the same amount, converted by molar mass.

| Compound | tested on | assay | system | conditions | how to read | measurement | value |
| --- | --- | --- | --- | --- | --- | --- | --- |
| CS(=O)(=O)Nc1ncn(-c2cc(F)c(COc3ccc(OS(=O)(=O)F)cc3)c(F)c2)n1 | Mycobacterium tuberculosis | MABA | H37Rv |  |  | MIC90 | 0.039 µM (≈ 0.0187 µg/mL) |
| CCCCCCCCCCCCCCCCCC[N+](C)(C)CCCCCCCCCC[N+](C)(C)CCCCCCCCCCCCCCCCCC.[Br-].[Br-] | influenza A virus A/PR/8/34 (H1N1) |  |  | concentration not given, post-treatment |  | protection | 65.6 ± 4.5% |
| C=CCNCCc1c[nH]c2cccc(O)c12.C=CCNCCc1c[nH]c2cccc(O)c12.O=C(O)/C=C/C(=O)O |  |  | C57BL/6J mice | subcutaneous, 1 mg/kg |  | head twitch count | 36 ± 2.3 |
| CC[C@H](C)[C@@H]1NC(=O)[C@@H]2CCCN2C(=O)[C@H](CC(C)C)NC(=O)[C@H](CC(C)C)NC(=O)CNC(=O)[C@@H](NC(=O)[C@@H](NC(=O)[C@H](CC(=O)O)NC(=O)CNC(=O)[C@@H](NC(=O)[C@H](C)NC(=O)CNC(=O)[C@H](CCCCN)NC(=O)[C@H](CC(C)C)NC(=O)[C@H](CC(C)C)NC(=O)[C@H](CCCCN)NC(=O)CNC(=O)[C@@H](NC(=O)[C@@H](N)CC(C)C)C(C)C)C(C)C)C(C)C)CSSC[C@@H](C(=O)O)NC1=O |  | RNA-seq, item: Traf1 | mouse, traumatic brain injury model, frontal cortex and hippocampus | dose not given | baseline: TBI alone | log2 fold change | -2.15 |
| CS(=O)(=O)CCCn1c(Cn2c(=O)n(CC(F)(F)F)c3ccncc32)cc2cc(Cl)ccc21 | respiratory syncytial virus | RT-qPCR | hospitalized infants 1-24 months, nasal swab | oral, 1-9 mg/kg daily, day 3, all doses combined | baseline: baseline | LS mean viral load change | -1.95 log10 copies/mL |
| O=C(O)/C=C/C(=O)O.Oc1cccc2[nH]cc(CCNC3CCCCC3)c12 |  |  | C57BL/6J mice | subcutaneous, 0.3 mg/kg |  | head twitch count | 6.5 ± 1.4 |
| CCCCCCCCCCCCCCCCCC[N+](C)(C)Cc1ccc(C[N+](C)(C)CCCCCCCCCCCCCCCCCC)cc1.[Br-].[Br-] | influenza A virus A/PR/8/34 (H1N1) |  |  | concentration not given, post-treatment |  | HA titre reduction | 2 log units |
| CC(C)(C)NCCc1c[nH]c2cccc(O)c12.CC(C)(C)NCCc1c[nH]c2cccc(O)c12.O=C(O)/C=C/C(=O)O |  |  | C57BL/6J mice | subcutaneous, 0.03 mg/kg |  | head twitch count | 4.5 ± 1 |
| CC(=O)NC[C@H]1CN(c2ccc(N3CCOCC3)c(F)c2)C(=O)O1 | Enterococcus faecalis |  | vancomycin-intermediate, 10 isolates | pH 7.0 |  | MIC50 | 2 µg/mL (≈ 5.93 µM) |
| CCCNCCc1c[nH]c2cccc(O)c12.CCCNCCc1c[nH]c2cccc(O)c12.O=C(O)/C=C/C(=O)O |  |  | C57BL/6J mice | subcutaneous, 0.03 mg/kg, 30 min |  | distance travelled | 2240 ± 207 cm |
| CCCCCCCCCCCC[N+](C)(C)CCOCC[N+](C)(C)CCCCCCCCCCCC.[Br-].[Br-] | influenza A virus A/PR/8/34 (H1N1) |  |  | concentration not given, co-treatment |  | protection | 86.2 ± 6.8% |
| CC(C)NCCc1c[nH]c2cccc(O)c12.O=C(O)/C=C/C(=O)O |  |  | C57BL/6J mice | subcutaneous, 0.3 mg/kg |  | head twitch count | 6.3 ± 0.4 |
| COc1c(CCC[P+](c2ccccc2)(c2ccccc2)c2ccccc2)cc2c(c1OC)OCO2.[I-] | RXF 393 | SRB |  |  |  | GI50 | -5.69 log M |
| O=C1c2c(O)c(=O)ccn2N([C@@H]2c3ccccc3SCc3c2ccc(F)c3F)[C@@H]2COCCN12 | influenza A virus H1N1 |  | A/WSN/33, BALB/c mice, lung | subcutaneous, 0.125 mg/kg every 6 h, 24 h |  | lung virus titre | 3.5 log10 TCID50/mL and 4 log10 TCID50/mL and 3.67 log10 TCID50/mL and 3 log10 TCID50/mL and 4.22 log10 TCID50/mL |
| C[C@H]1O[C@@H](O[C@H]2CC[C@@]3(C)[C@@H](CC[C@]4(C)[C@@H]3C=C[C@]35OC[C@@]6(CCC(C)(C)C[C@H]63)[C@@H](O)C[C@]54C)[C@]2(C)CO)[C@H](O)[C@@H](O[C@@H]2O[C@H](CO)[C@@H](O)[C@H](O)[C@H]2O)[C@H]1O |  |  | mouse, ethanol-fed, hepatic SIRT1 knockdown, plasma | dose not given, 5 h, high dose |  | total cholesterol | 2.99 mM and 3.51 mM and 3.01 mM and 3.09 mM and 3.29 mM |
| CCCCCCCCCCCCCCCCCC[N+](C)(C)CCCCCCCCCCCC[N+](C)(C)CCCCCCCCCCCCCCCCCC.[Br-].[Br-] | influenza A virus A/PR/8/34 (H1N1) |  |  | concentration not given, post-treatment |  | HA titre reduction | 3 log units |
| CCCCNCCc1c[nH]c2cccc(O)c12.O=C(O)/C=C/C(=O)O |  |  | C57BL/6J mice | subcutaneous, 0.03 mg/kg |  | head twitch count | 7 ± 2.8 |
| CC[C@H](C)[C@H](NC(=O)[C@H](C)NC(=O)[C@H](CCCCN)NC(=O)[C@H](CC(C)C)NC(=O)[C@H](C)NC(=O)[C@@H](NC(=O)[C@H](Cc1c[nH]cn1)NC(=O)[C@H](CC(C)C)NC(=O)[C@@H](NC(=O)[C@@H](NC(=O)[C@H](CCCCN)NC(=O)[C@H](C)NC(=O)[C@H](C)NC(=O)[C@H](CO)NC(=O)[C@H](CCCCN)NC(=O)[C@H](Cc1ccccc1)NC(=O)[C@@H](NC(=O)[C@H](CCCCN)NC(=O)[C@H](CC(C)C)NC(=O)[C@H](Cc1ccccc1)NC(=O)[C@H](CO)NC(=O)[C@H](CCCCN)NC(=O)[C@H](Cc1c[nH]c2ccccc12)NC(=O)[C@H](CCCCN)NC(C)=O)[C@@H](C)O)[C@@H](C)O)C(C)C)[C@@H](C)O)C(=O)N[C@@H](CO)C(=O)N[C@@H](CO)C(N)=O | Enterococcus faecium |  |  | 40 strains |  | MIC50 | 4 µg/mL (≈ 1.36 µM) |
| COc1cccc(C(=O)NN(C(=O)c2cc(C)cc(C)c2)C(C)(C)C)c1C | Anopheles funestus |  | FUMOZ, pyrethroid-resistant | topical, 0.4 % | baseline: control | adult lifespan | no effect |
| Cn1c(=O)ccc2ccc(F)c(CCNC[C@H]3CN(c4cnc5c(n4)NC(=O)CO5)C(=O)O3)c21 | Klebsiella aerogenes |  |  |  |  | MIC50 | 0.25 µg/mL (≈ 0.534 µM) |
| COc1cc(CCC[P+](c2ccccc2)(c2ccccc2)c2ccccc2)c(OC)c2c1OCO2.[I-] | RXF 393 | SRB |  |  |  | GI50 | -5.7 log M |
| CC(C)N1CCC(NC2CCN(c3cccc(-c4cc5cc(F)ccc5[nH]4)c3)CC2)CC1 | LOX IMVI |  |  |  |  | GI50 | 1.36 µM |
| CCNCCc1c[nH]c2cccc(O)c12.CCNCCc1c[nH]c2cccc(O)c12.O=C(O)CCC(=O)O |  |  | C57BL/6J mice | subcutaneous, 30 mg/kg, 30 min session |  | distance travelled | 1040 ± 284 cm |
| CCOP(=S)(OCC)Oc1ccc(Cl)cc1Cl | nanobody A4 | ic-ELISA |  | concentration not given | baseline: coumaphos IC50 over compound IC50, molar basis | cross-reactivity | < 1% |

A few entries again:
| Compound | tested on | assay | system | conditions | how to read | measurement | value |
| --- | --- | --- | --- | --- | --- | --- | --- |
| CCCCCCCCCCCCCCCCCC[N+](C)(C)CCCCCCCCCC[N+](C)(C)CCCCCCCCCCCCCCCCCC.[Br-].[Br-] | influenza A virus A/PR/8/34 (H1N1) |  |  | concentration not given, post-treatment |  | protection | 65.6 ± 4.5% |
| CS(=O)(=O)Nc1ncn(-c2cc(F)c(COc3ccc(OS(=O)(=O)F)cc3)c(F)c2)n1 | Mycobacterium tuberculosis | MABA | H37Rv |  |  | MIC90 | 0.039 µM (≈ 0.0187 µg/mL) |
| CC(=O)NC[C@H]1CN(c2ccc(N3CCOCC3)c(F)c2)C(=O)O1 | Enterococcus faecalis |  | vancomycin-intermediate, 10 isolates | pH 7.0 |  | MIC50 | 2 µg/mL (≈ 5.93 µM) |
| CCCCCCCCCCCCCCCCCC[N+](C)(C)Cc1ccc(C[N+](C)(C)CCCCCCCCCCCCCCCCCC)cc1.[Br-].[Br-] | influenza A virus A/PR/8/34 (H1N1) |  |  | concentration not given, post-treatment |  | HA titre reduction | 2 log units |
